Published values of several laboratories.
Each line is one published result; not all experiments were run side by side.
Organism: Escherichia coli

SMILES | test | system | conditions | scale | MIC
c1ccc(CN2CCOCCOCCN(CCCCCCCCCCCCCCN3CCOCCOCCN(CCCCCCCCCCCCCCN4CCOCCOCCN(Cc5ccccc5)CCOCCOCC4)CCOCCOCC3)CCOCCOCC2)cc1 |  | Tol- |  |  | 3 µM
CC1OCC2OC(OC3C(N)CC(N)C(O)C3OC3OC(CO)C(OC4OC(CN)C(O)C(O)C4N)C3O)C(N)C(O)C2O1 (stereo not drawn) | broth microdilution | clinical isolate AG 003 |  |  | 64 to 128 µg/mL
COc1ccc2c(c1)[O][Au-]13[O]c4ccc5ccc(OC)cc5c4C=[N+]1C1CCCCC1[N+]3=C2.F[P-](F)(F)(F)(F)F (stereo not drawn) | bacterial growth, broth microdilution | carbapenem-resistant clinical isolate | 24 h |  | > 20 µM
CCn1cc(C(=O)NCCNCCO)c(=O)c2cc(OCc3ccc(C(C)(C)C)cc3)c(Cl)cc21 |  | ATCC 25922 |  | ≥80% growth inhibition | < 0.25 µg/mL
CC(=O)[O][Ag]=[c]1n(C)ccn1CC([O-])c1ccccc1.[Na+] (stereo not drawn) | broth dilution | ATCC 25922 | 18 h, 37 °C |  | 5 µg/mL
NC[C@@H]1O[C@H](O[C@H]2[C@@H](O)[C@H](O[C@@H]3[C@@H](O)[C@H](N)C[C@H](N)[C@H]3O[C@H]3O[C@H](CO)[C@@H](OCC(O)CO)[C@H](O)[C@H]3N)O[C@@H]2CO)[C@H](N)[C@@H](O)[C@@H]1O (stereo partly drawn) | broth microdilution | clinical isolate AG 001 |  |  | 32 to 64 µg/mL
C/C(=N/NC(=N)N)c1nnn(-c2ccc(C#CC(C)(C)O)cc2)c1C | microbial growth, broth dilution | BW25113 |  |  | > 64 µg/mL
CCN(CC)c1ccc(/C=N/NC(=O)c2cc(Cl)cc(Cl)c2)c(O)c1 | broth dilution | brain heart infusion broth | 24 h, 37 °C |  | > 100 µM
COc1ccc2ccc3c(c2c1)C=[N+]1C2CCCCC2[N+]2=Cc4c(F)cccc4[O][Au-]21[O]3.F[P-](F)(F)(F)(F)F (stereo not drawn) | bacterial growth, broth microdilution | carbapenem-resistant | 24 h |  | > 20 µM
C[n+]1ccc(/C=C2\Sc3ccccc3N2CCCN2CCCC2)c2ccccc21 | microbial growth, broth dilution | ATCC25922 |  |  | 4 µg/mL
CCCCc1ccc(N2C(=O)/C(=N\NC(=N)N)c3cc([N+](=O)[O-])ccc32)cc1 | microbial growth, broth dilution |  | 18 h |  | > 192 µg/mL
CSCC[C@H](NC(=O)[C@H](CCCNC(=N)N)NC(=O)[C@H](Cc1c[nH]c2ccccc12)NC(=O)[C@H](CCC(N)=O)NC(=O)[C@H](Cc1c[nH]c2ccccc12)NC(=O)[C@H](CCCNC(=N)N)NC(=O)[C@H](CCCNC(=N)N)NC(=O)[C@H](C)NC(=O)[C@H](CCCCN)NC(=O)[C@@H](N)Cc1ccccc1)C(=O)N[C@@H](CCCCN)C(=O)N[C@@H](CCCCN)C(=O)N[C@@H](CC(C)C)C(=O)NCC(=O)N[C@@H](C)C(=O)NCCCC[C@H](NC(=O)[C@H](C)NC(=O)CNC(=O)[C@H](CC(C)C)NC(=O)[C@H](CCCCN)NC(=O)[C@H](CCCCN)NC(=O)[C@H](CCSC)NC(=O)[C@H](CCCNC(=N)N)NC(=O)[C@H](Cc1c[nH]c2ccccc12)NC(=O)[C@H](CCC(N)=O)NC(=O)[C@H](Cc1c[nH]c2ccccc12)NC(=O)[C@H](CCCNC(=N)N)NC(=O)[C@H](CCCNC(=N)N)NC(=O)[C@H](C)NC(=O)[C@H](CCCCN)NC(=O)[C@@H](N)Cc1ccccc1)C(=O)NCCCCCC(N)=O | broth microdilution | ATCC 43827 | 24 h, 37 °C |  | 12 µM
CCCCO[C@H]1[C@H](O)[C@@H](N)[C@@H](O[C@H]2[C@H](O[C@@H]3O[C@H](CO)[C@@H](O[C@H]4O[C@@H](CN)[C@@H](O)[C@H](O)[C@H]4N)[C@H]3O)[C@@H](O)[C@H](N)C[C@@H]2N)O[C@@H]1CO | broth microdilution | clinical isolate AG 002 |  |  | 32 to 64 µg/mL
CC1COC(=O)N1/N=C/c1ccc([N+](=O)[O-])o1 (stereo not drawn) | microbial growth, broth dilution | ATCC25922 | 18 h |  | 6.25 µg/mL
Cc1[nH]c(=O)c(CNC(=O)c2ccc(C(F)(F)F)nc2)c2c1CCCC2 | microbial growth | ATCC25922 |  |  | > 128 µg/mL
CC(C)SC1COC(=O)N1/N=C/c1ccc([N+](=O)[O-])o1 (stereo not drawn) | microbial growth, broth dilution | ATCC25922 | 18 h |  | > 50 µg/mL
COc1c2c(cc3oc(=O)cc(-c4ccc(Cl)cc4)c13)C(=O)c1cc(C)cc(O)c1C2=O | microbial growth |  |  |  | 32 µg/mL
CC[C@H](C)[C@H](NC(=O)[C@H](CCCCN)NC(=O)[C@H](CCCCN)NC(=O)[C@H](Cc1c[nH]c2ccccc12)NC(=O)[C@H](CC(N)=O)NC(=O)[C@@H](NC(=O)COCCOCCOCCOCCOCCOCCOC(=O)NCCCCCCNC(=O)NCCCCCCNC(=O)Nc1nc(=O)cc(C)[nH]1)C(C)C)C(=O)N[C@@H](CC(C)C)C(=O)NCC(=O)N[C@@H](CCCCN)C(=O)N[C@H](C(=O)N[C@H](C(=O)N[C@@H](CCCCN)C(=O)N[C@H](C(=O)N[C@H](C(=O)N[C@@H](CCCCN)C(N)=O)C(C)C)C(C)C)[C@@H](C)CC)[C@@H](C)CC |  | ATCC 8937, RPMI medium | 24 h, 37 °C |  | 7.5 µM
C/C(=N\Nc1nc(-c2ccc(Cl)cc2)cs1)c1ccc2c(c1)sc1nc(=O)c(C#N)cn12 | broth microdilution |  |  |  | < 29 µg/mL
CC(C)CCCCC(=O)N[C@@H](CCN)C(=O)N[C@H](C(=O)N[C@@H](CCN)C(=O)N[C@H]1CCNC(=O)[C@H]([C@@H](C)O)NC(=O)[C@H](CCN)NC(=O)[C@H](CCN)NC(=O)[C@H](CC(C)C)NC(=O)[C@@H](Cc2ccccc2)NC(=O)[C@H](CCN)NC1=O)[C@@H](C)O | broth microdilution | W3110 | 37 °C |  | 0.25 µg/mL

SMILES | test | system | conditions | scale | MIC
COc1ccc2ccc3c(c2c1)C=[N+]1C2CCCCC2[N+]2=Cc4ccc(F)cc4[O][Au-]21[O]3.F[P-](F)(F)(F)(F)F (stereo not drawn) | bacterial growth, broth microdilution | carbapenem-resistant clinical isolate | 24 h |  | 20 µM
CCCCN1C(=O)/C(=N\NC(=N)N)c2cc(C)ccc21 | microbial growth, broth dilution |  | 18 h |  | 96 µg/mL
COc1ccc2ccc3c(c2c1)C=[N+]1C2CCCCC2[N+]2=Cc4cc(C(C)(C)C)cc(C(C)(C)C)c4[O][Au-]21[O]3.F[P-](F)(F)(F)(F)F (stereo not drawn) | bacterial growth, broth microdilution | carbapenem-resistant clinical isolate | 24 h |  | > 20 µM
C/C(=N\NC(N)=S)c1ccc2c(c1)sc1nc(=O)c(C#N)cn12 | broth microdilution |  |  |  | < 44 µg/mL
CO[C@H]1[C@H](O)[C@@H](N)[C@@H](O[C@H]2[C@H](O[C@@H]3O[C@H](CO)[C@@H](O[C@H]4O[C@@H](CN)[C@@H](O)[C@H](O)[C@H]4N)[C@H]3O)[C@@H](O)[C@H](N)C[C@@H]2N)O[C@@H]1CO | broth microdilution | clinical isolate AG 002 |  |  | ≥ 128 µg/mL
CC(C)c1ccc2c(c1)CCC1C(C)(CN(CC(O)C[N+](C)(C)C)CC(O)C[N+](C)(C)C)CCCC21C (stereo not drawn) | microbial growth, broth dilution | ATCC25922 | 16 h |  | 250 µg/mL
NC[C@H]1OB(O)c2c(OCCO)cccc21 |  | ATCC 25922 | M9 medium |  | 3.1 µM
COc1ccc2ccc3c(c2c1)C=[N+]1C2CCCCC2[N+]2=Cc4c(OC)cccc4[O][Au-]21[O]3.F[P-](F)(F)(F)(F)F (stereo not drawn) | bacterial growth, broth microdilution | carbapenem-resistant clinical isolate | 24 h |  | > 20 µM
O=C1c2ccccc2C(=O)c2c1ccc1c2C(C(=O)Nc2ccc(Cl)cc2)C(=O)C1c1ccccc1 (stereo not drawn) | microbial growth |  |  |  | > 100 µg/mL
C=CCO[C@H]1[C@H](O)[C@@H](N)[C@@H](O[C@H]2[C@H](O[C@@H]3O[C@H](CO)[C@@H](O[C@H]4O[C@@H](CN)[C@@H](O)[C@H](O)[C@H]4N)[C@H]3O)[C@@H](O)[C@H](N)C[C@@H]2N)O[C@@H]1CO | broth microdilution | clinical isolate AG 055 |  |  | 64 µg/mL
Cc1ccc2ccc3ccc(C)nc3c2n1.Cc1ccc2ccc3ccc(C)nc3c2n1.O.[Cl-].[Cl-].[Cl-].[Yb+3] |  |  |  |  | 31 µg/mL
O=C(CC1COC(=O)N1/N=C/c1ccc([N+](=O)[O-])o1)c1ccccc1 (stereo not drawn) | microbial growth, broth dilution | ATCC25922 | 18 h |  | > 50 µg/mL
O=C1c2ccccc2C(=O)c2c1ccc1c2C(C(=O)Nc2ccccc2)C(=O)C1c1ccccc1 (stereo not drawn) | microbial growth |  |  |  | > 100 µg/mL
N#Cc1ccc2cccc(O)c2n1 | microbial growth, agar dilution | ATCC25922 |  |  | 1500 µM
CC(C)=CCc1c(O)ccc2c1O[C@H]1c3cc4c(cc3OC[C@@H]21)OC(C)(C)C=C4 |  | TISTR 780 |  |  | 128 µg/mL
CC(C)C[C@@H]1NC(=O)[C@@H](CC(C)C)NC(=O)[C@H](CCN)NC(=O)[C@@H](NC(=O)[C@H](CCN)NC(=O)[C@@H](N)[C@@H](C)O)CCNC(=O)[C@H]([C@@H](C)O)NC(=O)[C@H](CCN)NC(=O)[C@H](CCN)NC1=O | broth microdilution | ATCC 35218, CAMHB with polysorbate-80 | 16 h |  | > 64 µg/mL
COc1c(CC=C(C)C)c(O)cc2c1[C@@H]1Oc3c(ccc(O)c3CC=C(C)C)[C@@H]1CO2 |  | TISTR 780 |  |  | 128 µg/mL
Cc1cc(/C=C2\Sc3ccccc3N2CCCN2CCCC2)c2ccccc2[n+]1C | microbial growth, broth dilution | ATCC 8739, ATCC8739 |  |  | 8 µg/mL
CCn1cc[n+](CC)[c]1[Au-]([Cl])([Cl])[Cl] | broth dilution | DSM 1116 | 20 h, 37 °C |  | 18.7 µM

Some of these lines once more:
SMILES | test | system | conditions | scale | MIC
CCN(CC)c1ccc(/C=N/NC(=O)c2cc(Cl)cc(Cl)c2)c(O)c1 | broth dilution | brain heart infusion broth | 24 h, 37 °C |  | > 100 µM
COc1ccc2ccc3c(c2c1)C=[N+]1C2CCCCC2[N+]2=Cc4c(F)cccc4[O][Au-]21[O]3.F[P-](F)(F)(F)(F)F (stereo not drawn) | bacterial growth, broth microdilution | carbapenem-resistant | 24 h |  | > 20 µM
C[n+]1ccc(/C=C2\Sc3ccccc3N2CCCN2CCCC2)c2ccccc21 | microbial growth, broth dilution | ATCC25922 |  |  | 4 µg/mL
